Results of several laboratories.
Lines come from different studies, so protocols differ. ± marks the error that the study gave. Converted amounts (≈) assume the structure as drawn.

Molecule	test	system	setting	how to read	endpoint	result
CC(=O)N[C@H](CCCCNC(=O)C(C)F)C(=O)N[C@@H](CS)C(=O)N[C@@H](CS)C(=O)N[C@@H](CCC(=O)O)C(=O)N[C@@H](Cc1c[nH]cn1)C(=O)N[C@H](Cc1ccccc1)C(=O)N[C@@H](CCCNC(=N)N)C(=O)N[C@@H](Cc1c[nH]c2ccccc12)C(=O)N[C@@H](CS)C(=O)N[C@@H](CCCNC(=N)N)C(=O)N1CCC[C@H]1C(=O)N[C@H](C(N)=O)C(C)C (stereo partly drawn) [fluorine-18 labelled]		C57BL/6 mice, male, B16-F10 tumour, liver	intravenous, 4 h		tissue uptake	0.44 ± 0.11 %ID/g
O=c1nc(NO)ccn1[C@@H]1O[C@H](CO)[C@@H](O)[C@H]1O	microdialysis	pregnant rat, blood, fetus, placenta, amniotic fluid	iv, 100 mg/kg of molnupiravir, with: NBMPR 10 mg/kg	relative to: molnupiravir alone	AUC	no effect
CN[C@@](C)(C[18F])C(=O)O		SCID mouse SK-OV-3 xenograft, muscle	15 min, post injection		tissue uptake	0.9 ± 0.2 %ID/g
Cc1ccc(OS(=O)(=O)O)cc1	untargeted mass spectrometry	human normal subjects, plasma ultrafiltrate			unbound fraction in plasma	2 ± 1%
CC[C@H](C)[C@H](NC(=O)[C@H](CC(C)C)NC(=O)[C@H](Cc1c[nH]c2ccccc12)NC(=O)[C@H](CCC(N)=O)NC(=O)[C@@H](NC(=O)[C@H](Cc1ccccc1)NC(=O)[C@H](C)NC(=O)[C@H](CCCCNC(=O)COCCOCCNC(=O)COCCOCCNC(=O)CC[C@H](NC(=O)CCCCCCCCCCCCCCCCCCC(=O)O)C(=O)O)NC(=O)[C@H](CCC(N)=O)NC(=O)[C@H](C)NC(=O)[C@@H](NC(=O)[C@H](CCCCN)NC(=O)[C@H](CC(=O)O)NC(=O)[C@H](CC(C)C)NC(=O)C(C)(C)NC(=O)[C@@H](NC(=O)[C@H](CO)NC(=O)[C@H](Cc1ccc(O)cc1)NC(=O)[C@H](CC(=O)O)NC(=O)[C@H](CO)NC(=O)[C@@H](NC(=O)[C@H](Cc1ccccc1)NC(=O)[C@@H](NC(=O)CNC(=O)[C@H](CCC(=O)O)NC(=O)C(C)(C)NC(=O)[C@@H](N)Cc1ccc(O)cc1)[C@@H](C)O)[C@@H](C)O)[C@@H](C)CC)[C@@H](C)CC)C(C)C)C(=O)N[C@@H](C)C(=O)NCC(=O)NCC(=O)N1CCC[C@H]1C(=O)N[C@@H](CO)C(=O)N[C@@H](CO)C(=O)NCC(=O)N[C@@H](C)C(=O)N1CCC[C@H]1C(=O)N1CCC[C@H]1C(=O)N1CCC[C@H]1C(=O)N[C@@H](CO)C(N)=O		human, severe renal impairment, plasma	subcutaneous, 5 mg, geometric mean		AUC(0-last)	81200 ng·h/mL
AAICTHLEV-OH (C-acid)	cysteine reduced state, reversed-phase HPLC	peptide, PBS	48 h, pH 7.2, room temperature		2-mercaptoethanol concentration	≥ 1 mM
CC(C)C[C@H](NC(=O)[C@H](CC(=O)O)NC(=O)CNC(=O)[C@H](CCCNC(=N)N)NC(=O)[C@H](CC(C)C)NC(=O)[C@H](CC(N)=O)NC(=O)[C@@H]1CCCN1C(=O)[C@@H](NC(=O)[C@H](C)NC(=O)[C@H](CC(N)=O)NC(=O)CCOCCOCCOCCOCCOCCOCCOCCOCCOCCOCCOCCOCCOCCOCCOCCOCCOCCOCCOCCOCCOCCOCCOCCOCCOCCOCCOCCOCCNC(=O)CN1CCN(CC(=O)O)CCN(CC(=O)O)CC1)C(C)C)C(=O)N[C@@H](CCC(N)=O)C(=O)N[C@H](C(=O)N[C@@H](CC(C)C)C(=O)N[C@@H](C)C(=O)N[C@@H](CCC(N)=O)C(=O)N[C@@H](CCCNC(=N)N)C(=O)N[C@H](C(=O)N[C@@H](C)C(=O)N[C@@H](CCCNC(=N)N)C(=O)N[C@H](C(=O)NCCOCCOCCOCCOCCOCCOCCOCCOCCOCCOCCOCCOCCOCCOCCOCCOCCOCCOCCOCCOCCOCCOCCOCCOCCOCCOCCOCCOCCC(N)=O)[C@@H](C)O)C(C)C)C(C)C [fluorine-18 labelled]		female athymic nude mice, DX3puroβ6/DX3puro xenografts, liver	intravenous, 0.175 nmol		tissue uptake	≤ 0.9 %ID/g
Oc1cc(Cl)c(Cl)c(-c2cc(Cl)c(Cl)cc2Cl)c1Cl	enantioselective GC, refers to: hydroxylated metabolite	phenobarbital-treated rat, rat liver microsomes	50 µM, 30 min		enantiomeric fraction	0.65
[123I]c1cncc(OC[C@@H]2CCN2)c1	SPECT	human, brain cortex	intravenous bolus, 7.35 mCi	relative to: plasma	tissue/plasma ratio	35.4
NC(=O)c1nc(F)c[nH]c1=O	UV-Vis spectrophotometry	supercritical CO2	120 min, 318 K, 15 MPa, 743.17 kg/m^3		solubility	213 µg/mL (≈ 1360 µM)
Cc1cnc(C(=O)N[C@H]2CCCCC/C=C\[C@@H]3C[C@@]3(C(=O)NS(=O)(=O)C3CC3)NC(=O)[C@@H]3C[C@@H](Oc4nc5ccccc5c5ccccc45)CN3C2=O)cn1		healthy human volunteers, plasma	oral, dose not given, alone, omeprazole interaction study		Cmax	2020 ng/mL
COc1ccc(-c2ccc3c(N4CCOC[C@@H]4C)nc(N4CCOC[C@@H]4C)nc3n2)cc1CO		human patients	oral, dose not given, related adverse events		incidence of AST increase	22%
